Measurements from different studies.
Lines come from different studies, so protocols differ. Numbers after ± are the reported error.
Chain of UniProt P05181 (whole entry, looked up): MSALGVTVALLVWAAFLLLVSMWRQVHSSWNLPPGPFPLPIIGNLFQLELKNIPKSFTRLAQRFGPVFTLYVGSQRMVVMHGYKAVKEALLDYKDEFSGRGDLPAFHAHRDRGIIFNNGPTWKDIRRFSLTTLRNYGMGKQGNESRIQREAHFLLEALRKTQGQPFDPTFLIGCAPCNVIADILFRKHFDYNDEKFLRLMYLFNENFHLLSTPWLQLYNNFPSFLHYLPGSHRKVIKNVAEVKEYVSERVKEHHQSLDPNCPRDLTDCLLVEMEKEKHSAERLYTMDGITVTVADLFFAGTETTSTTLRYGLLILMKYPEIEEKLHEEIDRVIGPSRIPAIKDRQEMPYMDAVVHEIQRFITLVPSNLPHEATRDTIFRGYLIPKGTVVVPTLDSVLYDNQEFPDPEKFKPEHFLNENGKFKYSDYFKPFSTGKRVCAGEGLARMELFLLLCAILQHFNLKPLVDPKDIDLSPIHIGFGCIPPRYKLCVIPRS

CC12CCCC(n3cc(C(=O)N4CCCC(N)C4)nn3)(C1)C1CC(C)(C)C1CC2 (stereo not shown) gave a viability of 73.6% (HT-29; 0.5 µM, 72 h, without Z-VAD-FMK pretreatment).
Under “lowest cytotoxic concentration”, CC1=CC(C)(C)N=C(Nc2nc(C)c3cc(C)cc(C)c3n2)N1 is recorded as 1 µM (IL-2 activated human PBMC; CellTiter-Glo; 48 h).
Under “intracellular glucuronide concentration”, O=C(O)C1OC(Oc2ccc3c(=O)cc(-c4ccccc4)oc3c2)C(O)C(O)C1O (stereo not shown) is recorded as 179 ± 17.5 µM (HeLa-UGT1A9 cells; 20 µM aglycone loading, end of excretion).
With CCCC[C@H](NC(=O)[C@H](CC(=O)O)NC(=O)[C@H](CC(=O)O)NC(=O)[C@H](CCC(=O)O)NC(=O)[C@H](Cc1ccc(O)cc1)NC(=O)[C@H](CC(=O)O)NC(=O)[C@H](CC(=O)O)NC(=O)[C@H](CCC(=O)O)NC(=O)[C@H](CC(C)C)NC(=O)[C@H](CCC(=O)O)NC(=O)[C@H](CCC(=O)O)NC(=O)c1ccc2c(c1)C1(OC2=O)c2ccc(O)cc2Oc2cc(O)ccc21)C(=O)N[C@@H](CCC(=O)O)C(=O)N[C@@H](CCC(=O)O)C(N)=O the median half-life was 20 min (BEAS-2B single cells; intracellular degradation, CE-LIF; 1 µM, 37 °C, microinjected).
The viability of COc1ccc(-c2coc3c(CC=C(C)C)c(O)c(CC=C(C)C)c(O)c3c2=O)cc1O is reported as 92.3% (SW480; cell growth or viability, MTT; 6.25 µg/mL).
With CC(=O)NC1C(N=C(N)N)C=C(C(=O)OC(C)OC(=O)C(N)C(C)C)OC1C(O)C(O)CO (mixture of isomers) the Papp was 2.24 ± 0.133 ×10⁻⁶ cm/s (Caco-2 monolayer; 250 µM, apical to basolateral).
The viability decrease of CC(=O)N[C@@H](CC(C)C)C(=O)N[C@H](C(=O)N[C@@H](Cc1ccccc1)C(=O)N[C@@H]1CSCc2ccc(cn2)-c2ccc(nc2)CSC[C@@H](C(=O)N[C@@H](CO)C(N)=O)NC(=O)[C@H](CC(C)C)NC(=O)[C@H](CCCNC(=N)N)NC(=O)[C@H](C)NC(=O)[C@H](Cc2c[nH]c3ccccc23)NC(=O)[C@H](Cc2ccc(O)cc2)NC(=O)[C@H](CCCNC(=N)N)NC1=O)[C@@H](C)O is reported as 30% (HeLa; CellTiter-Glo; 10 µM).
The tissue uptake of [64Cu+2].c1ccc(CNCc2ccc(CN3CCCN4CCNCCCN(CC4)CC3)cc2)nc1 is reported as 6.7 ± 2.72 %ID/g (CXCR4 (human); NOD/SCID mice, U87 xenografts, small intestine; 30 min post-injection).
For CC(=O)N[C@H](C(=O)N[C@H](C(=O)N[C@@H](CCCNC(=N)N)C(=O)N1Cc2ccccc2C[C@H]1C(=O)N[C@@H](Cc1ccccc1)C(N)=O)C1CCCCC1)C(C)C, the cytokine level was 4850 ± 5350 pg/mL (human PBMC; Bio-Plex multiplex, item: MCP-1(MCAF); 250 µg/mL, 24 h).
With O=C(Nc1ccc2c(c1)CN(c1ccccc1)C2=O)N1CC[C@H](O)C1 the IC50 was > 64 µM (primary peritoneal mouse macrophages; cytotoxicity; 5% fetal calf serum).
CC(=O)OC(CCl)Cn1cncc1[N+](=O)[O-] (stereo not shown) gave a mutagenic potency of 0.51 ± 0.07 revertants/µg (Salmonella enterica serovar Typhimurium; Ames test, Bernstein slope; TA1535).
For CCCSC(=S)N1CCN(C(=O)/C=C/c2coc3ccccc3c2=O)CC1, the protective effect was 48.7 ± 7.4% (tomato spotted wilt virus; viral infection, half-leaf method; Nicotiana glutinosa; 500 µg/mL).
With COc1cc2c(cc1O)[C@]1(O)C(=O)c3c(O)cc4c(c3O[C@@H]1CO2)C=CC(C)(C)O4 the viability was 83.3% (SW480; cell growth or viability, MTT; 25 µg/mL).
For CN1C(=O)[C@@H](Cc2ccc(O)cc2)NC(=O)CNC(=O)[C@H](Cc2ccc3ccccc3c2)NC(=O)[C@H](CCCNC(=N)N)NC(=O)[C@H]1CCCNC(=O)c1ccc(CNC(=O)CN2CCN(CC(=O)O)CCN(CC(=O)O)CCN(CC(=O)O)CC2)cc1 [gallium-68 labelled], the tissue uptake was 0.9 ± 0.1 %ID/g (SCID mice, lymphoma xenograft, stomach; intravenous, 1 h).
Under “intracellular glucuronide concentration”, O=C(O)C1OC(Oc2cccc(-c3cc(=O)c4ccccc4o3)c2)C(O)C(O)C1O (stereo not shown) is recorded as 85.7 ± 9.88 µM (HeLa-UGT1A9 cells; 20 µM aglycone loading, end of excretion).
N=C(N)NCCC[C@@H]1NC(=O)[C@H](Cc2c[nH]c3ccccc23)NC(=O)[C@@H](CC2CCCCC2)NC(=O)[C@@H]2CCCN2C(=O)[C@@H](NC(=O)CCc2ccccc2)CCCNC1=O: “redistribution rate constant k21” 0.87 h⁻¹ (C57BL/6J mice, brain; intraperitoneal, 1 mg/kg, two-compartment model).
The cellular uptake of CCC1=C(CC)C2=[N+]3C1=Cc1c(CC)c(CC)c4[n]1[Ir-3]31([Cl])([C]#[O+])[n]3c(c(CC)c(CC)c3=CC3=[N+]1C(=C4)C(CC)=C3CC)=C2 is reported as 34.1 ± 2.8 µg iridium/g protein (NCI-H460; ICP-MS; 1 µM, 2 h).
CC[C@H](C)[C@H](NC(=O)[C@H](Cc1c[nH]c2ccccc12)NC(=O)[C@H](CCCNC(=O)c1ccc2c(c1)C(=O)OC21c2ccc(O)cc2Oc2cc(O)ccc21)NC(=O)CNC(=O)[C@H]1CCCN1C(=O)[C@@H](NC(=O)[C@H](CCCNC(=N)N)NC(=O)[C@@H](NC(=O)[C@H](Cc1c[nH]c2ccccc12)NC(=O)[C@H](CCCNC(=N)N)NC(C)=O)C(C)C)C(C)C)C(=O)N[C@@H](CCCNC(=N)N)C(=O)N[C@@H](CCC(N)=O)C(=O)N[C@@H](CC(C)C)C(=O)N[C@@H](CCCNC(=N)N)C(=O)NCC(=O)NCC(N)=O gave a half-saturation concentration of 68.8 µM (HeLa; peptide uptake, fluorescence microscopy; range over 80 to 160 µM, 90 min, 37 °C).
CC1(C)CCC2(CO)C(=C3C=CC4[C@@]5(C)CCC(O)[C@@](C)(CO)C5CC[C@@]4(C)[C@]3(C)C[C@H]2O)C1 (stereo partly shown) — result for “recovery basolateral to apical”: 86.4% (Caco-2 monolayer; Caco-2 bidirectional transport; 10 µM, 3 h, 37 °C).
CCC(=O)N(C)c1ccc(Cl)c(Cl)c1 — result for “cells with one aberration”: 0% (CHO-WBL; 0.13 mg/mL, 3 h, without S9 activation).
C=CC(=O)Nc1cc(Nc2nccc(-c3cn(C)c4ccccc34)n2)c(OCC(F)(F)F)nc1N(C)CCN(C)C has a remaining compound of 95% (Cytochrome P450 2E1 (CYP2E1, Homo sapiens, UniProt P05181); substrate, LC-MS; recombinant enzyme; 3 µM, 60 min).
For CC(C)NC(=O)NNS(=O)(=O)c1ccc2c(c1)n(C)c(=O)c(=O)n2C, the inhibition was 10% (hTERT-RPE1; cell viability, MTT; concentration not given).
CCCCn1cc(C(=O)O)c(=O)c2cc(F)c3[nH]nnc3c21 has an IC50 of 120 ± 14.1 µg/mL (HT-29; cell growth, SRB; 72 h).
For O=C(O)C1OC(Oc2c(-c3ccccc3)oc3ccc(O)cc3c2=O)C(O)C(O)C1O (stereo not shown), “intracellular glucuronide concentration” read 115 ± 5.2 µM (HeLa-UGT1A9 cells; item: 3-O-glucuronide; 0.625 µM aglycone loading, end of excretion).
The cellular uptake of Cn1[c]([Ir-3]234([NH3+])[n]5c6ccc5C(c5c(F)c(F)c(F)c(F)c5F)=C5C=CC(=[N+]52)C(c2c(F)c(F)c(F)c(F)c2F)=c2ccc([n]23)=C(c2c(F)c(F)c(F)c(F)c2F)C2=[N+]4C(=C6c3c(F)c(F)c(F)c(F)c3F)C=C2)[n+](C)c2ccccc21.F[P-](F)(F)(F)(F)F is reported as 236 ± 9.81 µg iridium/g protein (NCI-H460; ICP-MS; 1 µM, 2 h).
O=C(O)C1OC(Oc2c(-c3cccc(O)c3)oc3ccccc3c2=O)C(O)C(O)C1O (stereo not shown) — result for “intracellular glucuronide concentration”: 15.4 ± 0.42 µM (HeLa-UGT1A9 cells; item: 3-O-glucuronide; 0.625 µM aglycone loading, end of excretion).
COc1cccc2c1C(=O)c1c(O)c3c(c(O)c1C2=O)CC(O)(C(=O)CO)CC3OC1CC(NC(=O)C[C@H](N)C(=O)O)C(O)C(C)O1 (stereo partly shown) has a cellular uptake of 2.63 ± 0.171 µg/mL (HepG2 (LAT1-positive); HPLC; 50 µg/mL, 2 h, serum-free medium).
The CC50 of Cc1nc([C@@H](NC(=O)c2ccc(-c3ccc(Cl)cc3)[nH]2)[C@H]2CCCCN2)sc1CO is reported as ~30 µM (MT2; cell growth or viability, XTT).
O=C(O)C1OC(Oc2c(-c3ccccc3O)oc3ccccc3c2=O)C(O)C(O)C1O (stereo not shown) — result for “intracellular glucuronide concentration”: 8.95 ± 1.09 µM (HeLa-UGT1A9 cells; item: 3-O-glucuronide; 0.3125 µM aglycone loading, end of excretion).
Cc1cc(O)cc(O)c1C(=O)c1c2c3c(c(O)cc(C)c3oc1=O)C(=O)c1c(O)cc(O)cc1-2 has a Papp of 0.008 to 0.138 ×10⁻⁶ cm/s (Caco-2 monolayer; 50 to 400 µM, 180 min, pH 7.4, basolateral to apical).
Cc1c(NC(=O)c2cccn(-c3ccc(F)cc3)c2=O)ccc(Oc2ccnc(NC(=O)C3CC3)c2)c1C — result for “lowest concentration with caspase cleavage”: > 50 µM (L929; western blot; 3 h, 10% FBS).
CC(C)=CCc1c2c(c(O)c3c(=O)c(-c4ccc(O)cc4)coc13)CC(C(C)(C)O)O2 (stereo not shown) gave a viability of 8.07% (SW480; cell growth or viability, MTT; 50 µg/mL).
Under “intracellular over medium concentration”, O=C(CCC(=O)NCCS(=O)(=O)O)NCCNC(=O)[C@@H](Cc1ccccc1)NC(=O)[C@@H](Cc1ccccc1)NC(=O)CCNc1ccc([N+](=O)[O-])c2nonc12 is recorded as 4 times (HeLa; 200 µM, 24 h).
CCN(CC)CCCSC(=S)N1CCN(C(=O)/C=C/c2coc3cc(F)ccc3c2=O)CC1 has a protective effect of 54.5 ± 2.8% (tomato spotted wilt virus; viral infection, half-leaf method; Nicotiana glutinosa; 500 µg/mL).
Cc1ccc(C2=C3C=CC4=[N+]3[Ir-3]35([c]6n(C)cc[n+]6C)([c]6n(C)cc[n+]6C)[n]6c2ccc6C(c2ccc(C)cc2)=C2C=CC(=[N+]23)C(c2ccc(C)cc2)=c2ccc([n]25)=C4c2ccc(C)cc2)cc1.O=S(=O)([O-])C(F)(F)F gave a cellular uptake of 148 ± 6.4 µg iridium/g protein (NCI-H460; ICP-MS; 1 µM, 2 h).
CCCC[C@H](NC(=O)CNC(=O)CNC(=O)CN1CCN(CC(=O)O)CCN(CC(=O)O)CCN(CC(=O)O)CC1)C(=O)N[C@H]1CC(=O)NCCCC[C@@H](C(N)=O)NC(=O)[C@H](Cc2c[nH]c3ccccc23)NC(=O)[C@H](CCCNC(=N)N)NC(=O)[C@@H](Cc2ccccc2)NC(=O)[C@H](Cc2c[nH]cn2)NC1=O [lutetium-177 labelled] has a tissue uptake of 15.8 ± 1.45 %ID/g (C57 mouse, female, tumour; intravenous, 0.037 MBq, 4 h).
Under “cellular iridium uptake”, Cc1c(C)c(C)[c-](C)c1C.Cc1cccc(C)c1[N]1C(=O)c2cccc[n+]2[Ir]1[Cl] is recorded as 105 ng/10⁶ cells (NIH3T3; ICP-MS; 10 µM, 24 h).
Under “intracellular glucuronide concentration”, O=C(O)C1OC(Oc2ccccc2-c2cc(=O)c3ccccc3o2)C(O)C(O)C1O (stereo not shown) is recorded as 92.7 ± 11.3 µM (HeLa-UGT1A9 cells; 20 µM aglycone loading, end of excretion).
For O=C(/C=C/c1ccccc1)c1ccccc1, cytotoxicity read “toxic” (K562 transfected; concentration not given, with: TNF-alpha).
CC(C)=CCc1cc(-c2coc3cc(O)c(CC=C(C)C)c(O)c3c2=O)ccc1O has a viability of 127% (SW480; cell growth or viability, MTT; 6.25 µg/mL).
With [64Cu+2].c1cnc(CNCc2ccc(CN3CCCN4CCNCCCN(CC4)CC3)cc2)nc1 the tissue uptake was 2.85 ± 0.28 %ID/g (CXCR4; NOD/SCID mouse, U87 and U87-stb-CXCR4 xenografts, stomach; iv, 60 min, ex vivo).
O=c1[nH]cc(C(c2ccccc2Br)c2c[nH]c(=O)[nH]c2=O)c(=O)[nH]1: cytotoxicity “not toxic” (Mo7e; 1 µg/mL).
CC1(C)CCC23COC4(C=CC5C6(C)CCC(O)C(C)(CO)C6CCC5(C)C4(C)CC2O)C3C1 (stereo not shown) — result for “Papp apical to basolateral”: 8.54 ± 1.47 ×10⁻⁶ cm/s (Caco-2 monolayer; Caco-2 bidirectional transport; 10 µM, 3 h, 37 °C).
